Published values from different studies.
Every numbered part comes from another study and shows a few of its results, in no order. Substitutions count along the parent as printed.

Set 1 — target: CCNA1, cyclin fold, Cln2 fusion (human); method: yeast growth competition, sequencing; sample: yeast; notes: weak parent motif; reference: not given; reading: higher = stronger binding
Starting sequence: CDC6 docking peptide (human); TLKGRRLVFDNQL
For `Q12Y`, “normalised enrichment score” read 0.56.
Under “normalised enrichment score”, `K3P` is recorded as 0.458.
`N11K`: “normalised enrichment score” 0.157.
Under “normalised enrichment score”, `Q12W` is recorded as 0.421.
Under “normalised enrichment score”, `R5K` is recorded as -0.0916.
Under “normalised enrichment score”, `Q12N` is recorded as 0.136.
`V8C`: “normalised enrichment score” 0.579.
Under “normalised enrichment score”, `D10T` is recorded as -0.0608.
`G4M` — result for “normalised enrichment score”: 0.345.
`K3M`: “normalised enrichment score” 0.109.
`R6I` — result for “normalised enrichment score”: 0.0285.
`D10C`: “normalised enrichment score” 0.605.
`R5Q` — result for “normalised enrichment score”: -0.35.

Set 2 — method: DHFR PCA, deep sequencing; sample: yeast; with: (+)-ABA 710 µM; reference: wild-type fitted maximum; reading: higher = stronger binding
Target: ABI1, truncated, D143A, DHFR fusion (Arabidopsis thaliana)
Notes: methotrexate growth selection, single substitutions
Starting sequence: PYL1, truncated, DHFR fusion (Arabidopsis thaliana); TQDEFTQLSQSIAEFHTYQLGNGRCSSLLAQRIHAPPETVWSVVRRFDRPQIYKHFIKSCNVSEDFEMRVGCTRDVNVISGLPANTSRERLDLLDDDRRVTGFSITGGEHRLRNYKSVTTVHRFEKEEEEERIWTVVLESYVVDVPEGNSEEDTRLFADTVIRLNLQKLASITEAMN; partner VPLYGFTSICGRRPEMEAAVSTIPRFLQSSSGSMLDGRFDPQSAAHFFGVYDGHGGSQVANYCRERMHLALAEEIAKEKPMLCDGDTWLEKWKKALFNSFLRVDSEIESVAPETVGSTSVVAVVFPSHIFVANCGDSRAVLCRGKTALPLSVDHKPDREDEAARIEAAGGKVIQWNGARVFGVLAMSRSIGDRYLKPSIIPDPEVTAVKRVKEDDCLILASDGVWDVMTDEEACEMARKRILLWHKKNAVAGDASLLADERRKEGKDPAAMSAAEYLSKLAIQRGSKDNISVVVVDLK
Under “relative binding score”, `V100P` is recorded as -10.3%.
`N114I`: “relative binding score” 4.15%.
For `L20C`, “relative binding score” read 101%.
For `T154Y`, “relative binding score” read 15.5%.
For `N149E`, “relative binding score” read 67.3%.
`K54P` — result for “relative binding score”: -3.24%.
Under “relative binding score”, `N114Q` is recorded as 80.7%.
For `E131L`, “relative binding score” read 111%.
Under “relative binding score”, `N77Y` is recorded as 102%.
`I172F` — result for “relative binding score”: 95.8%.
Under “relative binding score”, `P83I` is recorded as 11.3%.
`E174S` — result for “relative binding score”: 96%.
For `L138A`, “relative binding score” read 53.8%.
`T39E` — result for “relative binding score”: 103%.
Under “relative binding score”, `R49A` is recorded as 99.4%.
`K116V` — result for “relative binding score”: 82.5%.
`V161R`: “relative binding score” -4.68%.
For `R111C`, “relative binding score” read 77%.
For `V78P`, “relative binding score” read 86.6%.

Set 3 — method: protein binding microarray; molecule type: double-stranded DNA, one strand shown; sample: in vitro; concentration: not given; reference: not given; reading: higher = stronger binding
Target: Histone acetyltransferase KAT6A, winged helix 1, GST fusion (KAT6A, Homo sapiens, UniProt Q92794, residues 1-85)
Notes: 8-mer, flanks averaged, mean of 2 arrays, mostly near background
Construct (chain): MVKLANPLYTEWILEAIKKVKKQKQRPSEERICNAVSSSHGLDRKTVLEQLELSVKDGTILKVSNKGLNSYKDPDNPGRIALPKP
With `AGGCTTTA` the E-score was -0.143.
The E-score of `TAACAATA` is reported as -0.062.
With `AAAGTTCT` the E-score was -0.082.
With `AGTAACAC` the E-score was 0.0463.
With `AGTGCTCA` the E-score was -0.214.
The E-score of `GTCGATCA` is reported as -0.184.
`AAAATGAA` has an E-score of -0.191.
`TCCCAGCA` gave an E-score of -0.115.
`GAGGTTAC` gave an E-score of 0.0746.
With `ACAGAGCT` the E-score was -0.0927.
`GTTAACCA` has an E-score of -0.214.
`AACGGCCC` has an E-score of 0.219.
With `AATGAGTA` the E-score was 0.0425.
The E-score of `AGTACTCA` is reported as -0.128.
With `AGATAATA` the E-score was -0.0822.

Further values, each from its own experiment
With `PhoQ, residues 284 288 289 292 302 303 WVSSAF` the fold induction was 17.5 (PhoP, residues 12 14 15 18 19 TPWLV (Escherichia coli, UniProt P23836); Sort-seq, refers to: YFP reporter; E. coli; PhoQ-PhoP variant library, with: 10 µM Mg2+; reference: high Mg2+ state, higher = stronger signaling).
